Experimental data collected from several papers.
Each line is one published result; not all experiments were run side by side. “And” joins repeats or separate records; there may be more than shown. ± gives the spread as reported.

The CL/F of `N#CC[C@H](C1CCCC1)n1cc(-c2ncnc3[nH]ccc23)cn1` is reported as 14.4 ± 8.5 L/h/m² (children up to 12 years, plasma; oral, BSA-corrected).
The CL/F of `O=C(c1cccnc1-c1ccncc1)N1CCC(O)(Cc2ccccc2)CC1` is reported as 120 L/h (healthy Japanese adults, plasma; 1200 mg single dose).
For `C=CC[C@@H]1/C=C(\C)C[C@H](C)C[C@H](OC)[C@H]2O[C@@](O)(C(=O)C(=O)N3CCCC[C@H]3C(=O)O[C@H](/C(C)=C/[C@@H]3CC[C@@H](O)[C@H](OC)C3)[C@H](C)[C@@H](O)CC1=O)[C@H](C)C[C@@H]2OC`, the CL/F was 29.1 L/h and 18.7 L/h (healthy adults; oral, geometric mean).
With `C[C@@H](N)C1CCN(S(=O)(=O)c2cccc3cnccc23)CC1` the CL/F was 5350 L/h (healthy volunteers, fasted, plasma; oral, 75 mg).
With `CCCCCCCCCCCCCCCC(=O)N[C@@H](CCC(=O)NCCCC[C@@H]1NC(=O)[C@H]([C@@H](C)CC)NC(=O)[C@@H](NC(=O)[C@@H]2CCCN2C(=O)[C@H](Cc2ccccc2)NC(=O)[C@H](Cc2c[nH]cn2)NC(=O)[C@@H](NC(=O)[C@H](CC(=O)O)NC(=O)CC(C)C)[C@@H](C)O)CSSC[C@@H](C(=O)N[C@@H](CCCCN)C(N)=O)NC(=O)CNC(=O)[C@H](CCCCN)NC(=O)[C@H](CO)NC(=O)[C@H](CCCNC(=N)N)NC(=O)[C@@H]2CCCN2C(=O)[C@H](CCC(=O)O)NC(=O)[C@H](Cc2ccccc2)NC1=O)C(=O)O` the CL/F was 0.979 ± 0.245 L/h (healthy volunteers, plasma; subcutaneous, 20 mg single, lyophilised formulation).
`O=C(Nc1cnccc1Cl)N1CCN(Cc2ccc3c(c2)OC(F)(F)O3)CC1` gave a CL/F of 6.98 L/h (healthy young men, plasma; oral, 75 mg once daily, day 10).
For `CO[C@H]1CC[C@H](N2C(=O)CNc3ncc(-c4ccc(C(C)(C)O)nc4)nc32)CC1`, the CL/F was 24.3 L/h (patients, plasma; 30 mg, day -1, geometric mean).
With `OC[C@H]1O[C@@H](c2ccc(F)c(Cc3cc4ccccc4s3)c2)[C@H](O)[C@@H](O)[C@@H]1O` the CL/F was 9.8 ± 2.24 L/h (Japanese type 2 diabetes patients; oral, 100 mg/day, day 14).

For quick reference, copied from above:
With `CCCCCCCCCCCCCCCC(=O)N[C@@H](CCC(=O)NCCCC[C@@H]1NC(=O)[C@H]([C@@H](C)CC)NC(=O)[C@@H](NC(=O)[C@@H]2CCCN2C(=O)[C@H](Cc2ccccc2)NC(=O)[C@H](Cc2c[nH]cn2)NC(=O)[C@@H](NC(=O)[C@H](CC(=O)O)NC(=O)CC(C)C)[C@@H](C)O)CSSC[C@@H](C(=O)N[C@@H](CCCCN)C(N)=O)NC(=O)CNC(=O)[C@H](CCCCN)NC(=O)[C@H](CO)NC(=O)[C@H](CCCNC(=N)N)NC(=O)[C@@H]2CCCN2C(=O)[C@H](CCC(=O)O)NC(=O)[C@H](Cc2ccccc2)NC1=O)C(=O)O` the CL/F was 0.979 ± 0.245 L/h (healthy volunteers, plasma; subcutaneous, 20 mg single, lyophilised formulation).
